Measured values of several laboratories.
Protocols differ between the studies behind these lines. ± marks the error that the study gave.

O[C@H]1CCCN[C@@H]1CCCn1cnc2c(Cl)c(Cl)ccc21
renal clearance (0-72 h) (healthy volunteers, urine; oral, 500 mg tablet single, geometric mean): 1510 mL/min

O=C(c1ccc(F)c(F)c1Nc1ccc(I)cc1F)N1CC(O)([C@@H]2CCCCN2)C1
treatment-related adverse events (refers to: retinal detachment; human patients; oral, 1 mg/kg, dose expansion, grade G1): 0%

CNSRQTDREDELI
inhibition (peptide, human polyclonal IgM RF ABR; concentration not given, 5 µg/mL mAb II-481 coated, with: RF at 50% max binding concentration): 0%

CCCCCCCCCCCCCC[N+](C)(C)CCCCCCCCCCCCCC
hepatic clearance (in vitro-in vivo extrapolation; human): 0.679 mL/h/g liver

[Met(O)35]Aβ42
time to β-sheet transition (CD spectroscopy; 10 mM sodium phosphate; 10 µM, pH 7.4, 25 °C, agitation 200 rpm): 48 to 72 h

Cc1ccc(-c2ncc(Cl)cc2-c2ccc(S(C)(=O)=O)cc2)cn1
tissue/plasma ratio (hip replacement patients; oral, 120 mg, 1.5 h; baseline: CSF over plasma): 0.097

NSRQTDR
inhibition (peptide, human polyclonal IgM RF ABR; concentration not given, 5 µg/mL mAb II-481 coated, with: RF at 50% max binding concentration): 0%

CCCCCCCCCCCC[N+](C)(C)C.[Br-]
surface partition coefficient (air-water interface): 7.42e-07 m

CCCCCOc1ccc(-c2ccc(-c3ccc(C(=O)N[C@H]4C[C@@H](O)[C@@H](O)NC(=O)[C@@H]5[C@@H](O)[C@@H](C)CN5C(=O)[C@H]([C@@H](C)O)NC(=O)[C@H]([C@H](O)[C@@H](O)c5ccc(O)cc5)NC(=O)[C@@H]5C[C@@H](O)CN5C(=O)[C@H]([C@@H](C)O)NC4=O)cc3)cc2)cc1
central volume of distribution (population PK model; patients, typical weight sample D kg; intravenous, dose not given): 26.7 L

Cc1cnc(C(=O)N[C@H]2CCCCC/C=C\[C@@H]3C[C@@]3(C(=O)NS(=O)(=O)C3CC3)NC(=O)[C@@H]3C[C@@H](Oc4nc5ccccc5c5ccccc45)CN3C2=O)cn1
AUC(0-24) (healthy human volunteers, plasma; oral, dose not given, alone, omeprazole interaction study): 11100 ng·h/mL

RmS-17, glycosylated (Rhipicephalus microplus)
protease inhibition (chymotrypsin (Bos taurus); chromogenic substrate hydrolysis, inhibitor; 1 µM): 89.8%

CN[C@@](C)(C[18F])C(=O)O
tissue uptake (SCID mouse DU-145 xenograft, liver; 60 min, post injection): 4.9 ± 0.6 %ID/g

RmS-6, glycosylated (Rhipicephalus microplus)
protease inhibition (chymotrypsin (Bos taurus); chromogenic substrate hydrolysis, inhibitor; 1 µM): 24.3%

[123I]c1cncc(OC[C@@H]2CCN2)c1
tissue/plasma ratio (SPECT; human, temporal lobe; intravenous bolus, 7.35 mCi; baseline: plasma): 27.9

Oc1cccc2ccccc12
body weight (fish short-term reproduction; Oryzias latipes, male, water, flow-through; 258 µg/L, end of exposure): 598 ± 30 mg

CC(=O)N[C@H](CCCCNC(=O)C(C)F)C(=O)N[C@@H](CS)C(=O)N[C@@H](CS)C(=O)N[C@@H](CCC(=O)O)C(=O)N[C@@H](Cc1c[nH]cn1)C(=O)N[C@H](Cc1ccccc1)C(=O)N[C@@H](CCCNC(=N)N)C(=O)N[C@@H](Cc1c[nH]c2ccccc12)C(=O)N[C@@H](CS)C(=O)N[C@@H](CCCNC(=N)N)C(=O)N1CCC[C@H]1C(=O)N[C@H](C(N)=O)C(C)C (some centres unmarked) [fluorine-18 labelled]
tissue uptake (C57BL/6 mice, male, B16-F10 tumour, muscle; intravenous, 4 h): 0.06 ± 0.01 %ID/g

melittin
partitioning enthalpy (isothermal titration calorimetry; POPC/POPG LUVs 90:10%; 100 µM, pH 7.0, 50 °C): -10 kcal/mol

Excerpt of the above:
[123I]c1cncc(OC[C@@H]2CCN2)c1
tissue/plasma ratio (SPECT; human, temporal lobe; intravenous bolus, 7.35 mCi; baseline: plasma): 27.9

Oc1cccc2ccccc12
body weight (fish short-term reproduction; Oryzias latipes, male, water, flow-through; 258 µg/L, end of exposure): 598 ± 30 mg
